Results from different studies.
Every numbered part comes from another study and shows a few of its results, in no order.

Block 1 — cell line: HEK-293T/ACE2; tested at: concentration not given; time: 16 (unit not given); relative to: vehicle
Structure (SMILES) | viability
C[C@]12COC(=O)C[C@@H]1CC[C@@H]1[C@@H]2CC[C@@]2(C)[C@H]1CC[C@]2(C)O | 98.2%
COc1ccc2c(c1)c(CC(=O)O)c(C)n2C(=O)c1ccc(Cl)cc1 | 101%
CCCCN(CCCC)CC(O)c1cc(Cl)cc2c1-c1ccc(Cl)cc1/C2=C/c1ccc(Cl)cc1 (stereo not shown) | 101%
CC[C@@H]1/C=C(\C)C[C@H](C)C[C@H](OC)[C@H]2O[C@@](O)(C(=O)C(=O)N3CCCC[C@H]3C(=O)O[C@H](/C(C)=C/[C@@H]3CC[C@H](Cl)[C@H](OC)C3)[C@H](C)[C@@H](O)CC1=O)[C@H](C)C[C@@H]2OC | 102%

Block 2 — effect on: enzyme activity; action: inhibitor; tested at: 20 µM
Target: Replicase polyprotein 1ab, main protease (rep, Severe acute respiratory syndrome coronavirus 2, UniProt P0DTD1)
SMILES | inhibition
COc1ccc(OC)c2c(=S)c3ccccc3[nH]c12 | -11.4%
O=[N+]([O-])/C=C/c1ccc2c(c1)OCO2 | 6.55%
CCn1c(-c2nonc2N)nc2cnc(Oc3cccc(NC(=O)c4ccc(OCCN5CCOCC5)cc4)c3)cc21 | -11.9%
CC(=O)O/N=C1/C(=O)N(Cc2cc(Cl)ccc2Cl)c2ccc(Cl)cc21 | 54.1%

Block 3 — method: RNA Bind-n-Seq; molecule type: RNA; matrix: in vitro; tested at: 1 µM; setting: whole 134-nt RNA, ends assumed; added: 150 mM KCl; relative to: input library; direction: higher = stronger binding
Target: Ras GTPase-activating protein-binding protein 1, RRM domain (G3BP1, Homo sapiens, UniProt Q13283)
Sequence of UniProt Q13283 (whole entry, looked up): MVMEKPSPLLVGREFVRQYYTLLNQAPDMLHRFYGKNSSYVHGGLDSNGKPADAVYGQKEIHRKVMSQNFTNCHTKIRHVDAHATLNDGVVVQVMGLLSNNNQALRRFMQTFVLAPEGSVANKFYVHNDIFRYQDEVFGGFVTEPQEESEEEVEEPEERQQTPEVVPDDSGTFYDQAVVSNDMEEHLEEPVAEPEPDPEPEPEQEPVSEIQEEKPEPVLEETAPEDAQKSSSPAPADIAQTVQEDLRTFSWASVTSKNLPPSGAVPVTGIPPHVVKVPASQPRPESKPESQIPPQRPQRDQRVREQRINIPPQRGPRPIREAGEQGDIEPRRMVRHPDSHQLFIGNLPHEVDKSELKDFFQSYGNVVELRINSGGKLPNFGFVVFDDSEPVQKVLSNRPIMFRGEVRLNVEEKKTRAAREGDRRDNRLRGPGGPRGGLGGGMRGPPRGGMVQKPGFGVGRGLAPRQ
Constant ends, left off below: GGGAGUUCUACAGUCCGACGAUC … UGGAAUUCUCGGGUGUCAAGG
Oligonucleotide | log2 enrichment
UAUCAGGAGGGCAGACUUCAAAAGCUACUAAAAAUGAACGGCCCUGAAGAUCUUCCCAAGUCCUAUGACUAUGACCUUAUCAUCAUUGGA | -0.219
GCAGGAAGUAAAAACAAAUGGAAAUGCUUCGGAUAGUGGCAGGGGUGGGGGUUGCUAAGGAAAGGGUGGGAUGGGAGUAAAUAAAGAGUU | 1.14
UGGAUUAGAGAGAAAUUGAAUUUUUUCUUACUUGAACUCCUACUAAAAAGUGAACUAAAUAUUUUAUUGUAGUAAUGGCAUAGAGGAGCC | -0.528
UGGCCCUGGUGGCAUGCGGGGAGGAAGAGGUGGCCUCAUGGAUCGGGGUGGUCCCGGUGGAAUGUUCAGAGGUGGCCGUGGUGGAGACAG | 0.76
UGGGAGGUGGAUUUUGUUUAUUUUUUUAGCUCAUUUCCAGGGGUGGGAAUUAUUUUUUAAUAUGUGUCAUGAAUAAAGUUGUUUUUGAAA | 2.01
AAGUCCUGUGCUACACAUCGUAUGUACCGAAUCGGGAAAAAAAGGGUGGGUUUGGGAAAGUAUUAUGUUACGCCGUUCGGAUCUGCACUU | 0.599
UAACUUUAGAGGAGGAUCUGAUGGUUAUGGCAGUGGACGUGGAUUUGGGGAUGGCUAUAAUGGGUAUGGAGGAGGACCUGGAGGUGGCAA | -0.81
CAAGUCCUGUGCUACACAUCGUAUGUACCGAAUCGGGAAAGGGAAAAAGGGUGGGAAAGUAUUAUGUUACGCCGUUCGGAUCUGCACUUC | 0.888

Block 4 — action: inhibitor; tested at: 20 µM
Target: Replicase polyprotein 1ab, nsp13 helicase (rep, Severe acute respiratory syndrome coronavirus 2, UniProt P0DTD1)
SMILES | inhibition [%]
CCCCc1ncc(/C=C(\Cc2cccs2)C(=O)O)n1Cc1ccc(C(=O)O)cc1 | -1.48
CC1=NN=C(c2ccc(N)cc2)c2cc3c(cc2C1)OCO3 | 4.14
O=C(NCCN1CCC2(CC1)C(=O)NCN2c1cccc(F)c1)c1ccc2ccccc2c1 | -1.87
CNC(=O)c1ccc(C)c(-n2c(C)cc(OCc3ccc(F)cc3F)c(Br)c2=O)c1 | 4.8
O=S(=O)(c1cccc2c(O)nccc12)N1CCCNCC1 | -0.98
Nc1cc(C(F)(F)F)c(-c2cc(N3CCOCC3)nc(N3CCOCC3)n2)cn1 | 2.9
C[C@]12CC[C@H](O)C[C@H]1CC[C@@H]1[C@@H]2CC[C@]2(C)[C@@](O)(c3ccoc3)CC[C@]12O | 7.95
CC(=C\c1ccc(Cl)cc1)/C(C)=N/O | 2.08
O=C1OC(CN2CCOCC2)CN1/N=C/c1ccc([N+](=O)[O-])o1 (stereo not shown) | 4.01
OC[C@@H](O)[C@@H](O[C@@H]1O[C@H](CO)[C@H](O)[C@H](O)[C@H]1O)[C@H](O)[C@@H](O)CO | 2.66
CCCCCCc1ccc(O)cc1O | -26
Clc1ccc(C(Cn2ccnc2)OCc2ccc(Sc3ccccc3)cc2)c(Cl)c1 (stereo not shown) | 5.59
Nc1ccn([C@@H]2CS[C@H](CO)O2)c(=O)n1 | 3.48
C=CC(=O)c1ccc2ccccc2c1 | 99.1
Cc1cc(C)c(NC(=O)N(Cc2ccc3c(c2)Cc2ccccc2-3)C2CCCCCC2)c(C)c1 | 17.1

A few entries again (block 2):
SMILES | inhibition
COc1ccc(OC)c2c(=S)c3ccccc3[nH]c12 | -11.4%
CC(=O)O/N=C1/C(=O)N(Cc2cc(Cl)ccc2Cl)c2ccc(Cl)cc21 | 54.1%
